Results pooled from the literature.
Numbered parts are unrelated; each lists some results of a single study.

Block 1
Target: RNA binding protein fox-1 homolog 2, RRM domain, GST-SBP tag (RBFOX2, Homo sapiens, UniProt O43251-10, residues 100-194)
Technique: RNA Bind-n-Seq
Molecule type: RNA
Medium: in vitro
Concentration: 365 nM
Notes: natural RNA segment, single round, ends assumed
Relative to: no-protein control
Reading: higher = stronger binding
Quantity: RBNS enrichment (R)
Construct (chain): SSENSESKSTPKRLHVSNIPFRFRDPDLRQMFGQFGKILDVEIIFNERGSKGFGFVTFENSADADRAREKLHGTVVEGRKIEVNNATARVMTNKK
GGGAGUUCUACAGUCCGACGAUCUUGCCUGGGCCUUCUGCCUUAUACUUUGGGAUAAAUGGGGUGUAGGGGAUAUAUUCACUACUUUGGGAUACCCCCAAACCUGUUCUGACGUCGUGAGUGUCAAAUGUGUCUGGAAUUCUCGGGUGCCAA: 0.303
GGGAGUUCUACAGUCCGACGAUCCCUCCCCUUGAGUGAUGGAAGGUGCCACUCACCUAGGCCAAAGCCCACAUCCUCUUGGGGACUCAGAGCACUCCUCUCCUUCCACUCCCAAAGACACGGGUAUUCCAGACUGGAAUUCUCGGGUGCCAA: 0.251
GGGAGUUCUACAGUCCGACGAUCUUGGUAUGUGGCCAUAUUUAUAGAAUGCUGAACUCAAUGUGCAAGUUGUACUGUAUGCAGUUUUGUAAAUAAGUGAAAAUAAUUUGUUGUACUUUUUAUUCAAUUCUGUAUGGAAUUCUCGGGUGCCAA: 1.12
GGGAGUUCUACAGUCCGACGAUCGAUUGGCUCAGGUUUAAUACAUCUGUUAUUAUAUAAUCUAGCAAAAGUUGGAUUAUAGAUUAUAACGUAGAGUUGGUUUGUAGGGCCAAAUAAUCAGAGGACAUGCAAUAUGGAAUUCUCGGGUGCCAA: 0.376
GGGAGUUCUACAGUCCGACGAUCCUGAGCACCAAUCCCAGGUUUGUACCCUUUCCCCUAAUCUGUUUUUAGAUUUGAUCUAGGUUGCCUCAAUAGCCUUGGGUGUUUUAUUUAAAUGAAGAGGGGAAUAAACAUGGAAUUCUCGGGUGCCAA: 0.226
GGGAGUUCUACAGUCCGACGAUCAAAAAAAUGUGCCUCUGGUGAAUUAUCCAUCCUUUUUUUAAAAUGUUAAACUGGUCUUUGAGAAAAGAAUAGUGCAGAUAAGAGCAGCCAAGGACUUCAAAGCUUGUUGAUGGAAUUCUCGGGUGCCAA: 0.826
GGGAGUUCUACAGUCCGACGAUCAAUUCCUAUAUUUUCAGUGGAUUCAAACUCUUUCUGAGGUUUUAAUGCGUGAAAGGAGCAGAGAAAUUAGGAAUCAGGGAAAAUUCAGUUAAAAGACUAGCAUCAGUAGGUGGAAUUCUCGGGUGCCAA: 1.14
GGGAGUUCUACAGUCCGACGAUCCCUUUCCCUCCCUGGGCCUCAGUUUCCCCAUCUCCCAAAUGGGAGGAGGAGCCGGAUUGGGUUAUUUCUUAGGGAUUCUCUUUGUGUGCCUUGCUGGCUUCCAGACCUGCUGGAAUUCUCGGGUGCCAA: 0.883
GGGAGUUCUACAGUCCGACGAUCUGUCCUUCCCUCUCCCAGUUAAAACGGAUGACCAAAGACCUUUCUUAUGCCGGAAGCAAAAACCAAACUUUUUGUUGGCUUUUUCUUUUGCCGCCUCCCGAGCACCCUGCUGGAAUUCUCGGGUGCCAA: 0.587

Block 2
Target: Ras GTPase-activating protein-binding protein 1, full length (G3BP1, Homo sapiens, UniProt Q13283)
Chain of UniProt Q13283 (whole entry, looked up): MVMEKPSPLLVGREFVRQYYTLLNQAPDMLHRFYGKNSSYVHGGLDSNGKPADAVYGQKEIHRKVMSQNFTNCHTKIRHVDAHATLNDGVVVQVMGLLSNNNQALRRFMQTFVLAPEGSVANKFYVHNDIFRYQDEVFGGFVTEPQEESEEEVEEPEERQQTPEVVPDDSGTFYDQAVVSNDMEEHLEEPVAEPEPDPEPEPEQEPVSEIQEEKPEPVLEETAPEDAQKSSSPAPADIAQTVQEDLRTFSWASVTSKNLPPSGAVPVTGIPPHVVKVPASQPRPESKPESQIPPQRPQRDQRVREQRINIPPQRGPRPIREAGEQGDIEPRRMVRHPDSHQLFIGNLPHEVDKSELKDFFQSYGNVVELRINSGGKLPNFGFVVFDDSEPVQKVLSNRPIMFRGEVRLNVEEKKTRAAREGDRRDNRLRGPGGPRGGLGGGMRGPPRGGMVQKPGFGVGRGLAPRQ
Technique: RNA Bind-n-Seq
Molecule type: RNA
Medium: in vitro
Concentration: 200 nM
Notes: whole 134-nt RNA, ends assumed
Together with: 150 mM LiCl
Relative to: input library
Reading: higher = stronger binding
Quantity: log2 enrichment
Library: 7-deaza-guanosine replaces G
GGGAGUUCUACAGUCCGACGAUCGUAAGUGUGGCAAUGUGAACUGAAGCUGAUGGGCUGAGAACAUGGACUGAGCUUGUGGUGUGCUUUGCAGGAGGACUUGAAGCAGAGUUCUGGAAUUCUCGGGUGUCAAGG: 0.683
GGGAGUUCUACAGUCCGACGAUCAAGUCCUGUGCUACACAUCGUAUGUACCGAAUCGGCCCCGGGGCCCCGGCCCCGGGAAAGUAUUAUGUUACGCCGUUCGGAUCUGCACUUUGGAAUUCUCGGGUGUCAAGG: -1.59
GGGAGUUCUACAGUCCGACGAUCCAAGUCCUGUGCUACACAUCGUAUGUACCGAAUCGGGGUUUGGUUUGGUUUGGGGAAAGUAUUAUGUUACGCCGUUCGGAUCUGCACUUCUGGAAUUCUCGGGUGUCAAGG: 0.137
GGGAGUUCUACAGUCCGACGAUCCCUGUGCUACACAUCGUAUGUACCGAAUCGGGCCCCCCCGGCCCCCCCGGGCCCCCCCGGGAAAGUAUUAUGUUACGCCGUUCGGAUCUGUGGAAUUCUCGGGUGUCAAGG: 0.174
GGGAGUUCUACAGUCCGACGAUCUUUCUCCACAGGAGCCCCGCAAGUGAGCCAGCCACUGCGAGAGCAGAGUGAGGAUAUACCUGGAGCCAUUUCCUCUGCCCUGGCAGCCAUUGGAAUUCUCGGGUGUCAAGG: 1.17
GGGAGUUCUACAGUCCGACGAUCUCAAGUCCUGUGCUACACAUCGUAUGUACCGAAUCGGGGUUGGUUGGGUUGGGGAAAGUAUUAUGUUACGCCGUUCGGAUCUGCACUUCCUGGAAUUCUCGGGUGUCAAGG: 0.34
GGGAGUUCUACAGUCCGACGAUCGCAGGAAGUAAAAACAAAUGGAAAUGCUUCGGAUAGUGGCAGGGGUGGGGGUUGCUAAGGAAAGGGUGGGAUGAAAGUGGGUAAAGAGUUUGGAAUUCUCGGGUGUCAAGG: 0.00694
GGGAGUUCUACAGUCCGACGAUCUGUACAAACACUUUCCCAUCCCCCUCAUUAACCGGCUGGAGAAGCACUAUCUGGAUAUCAACACGGUGCUGGAGAAAUGGCAGAAGAGCAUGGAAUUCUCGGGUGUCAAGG: 0.311
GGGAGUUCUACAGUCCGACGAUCCUCAAGUCCUGUGCUACACAUCGUAUGUACCGAAUCGGGGAAGGGAAGGAAGGGAAAGUAUUAUGUUACGCCGUUCGGAUCUGCACUUCCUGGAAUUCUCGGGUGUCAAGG: -0.461
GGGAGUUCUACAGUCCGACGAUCUAACUUAAGAGGAGGAUCUGAUGGAUAUGGCAGUGGACGUGGAUUUGGGGAUGGCUAUAAUGGGUAUGGAGGAGGACCUGGAGGUGGCAAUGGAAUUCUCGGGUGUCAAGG: 0.0962
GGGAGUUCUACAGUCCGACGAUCUGUAUCCCUGUUUCUUUUCUCCCUACAGAAACAUAUGAGGAUUUUGAUACCAGGAUACUUGAGGUAGGCAUGCAGAAUUAAAUACCUGGUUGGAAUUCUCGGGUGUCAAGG: 0.483

Block 3
Target: Histone acetyltransferase KAT6A, both winged helices, GST fusion (KAT6A, Homo sapiens, UniProt Q92794, residues 1-181)
Technique: protein binding microarray
Molecule type: double-stranded DNA, one strand shown
Medium: in vitro
Concentration: not given
Notes: 8-mer, flanks averaged, mean of 2 arrays, mostly near background
Relative to: not given
Reading: higher = stronger binding
Quantity: E-score
Residues (chain): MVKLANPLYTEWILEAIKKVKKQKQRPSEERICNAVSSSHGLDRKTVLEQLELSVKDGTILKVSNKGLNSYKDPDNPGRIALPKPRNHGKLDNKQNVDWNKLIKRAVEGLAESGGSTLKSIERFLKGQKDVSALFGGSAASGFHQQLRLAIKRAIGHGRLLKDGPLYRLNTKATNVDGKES
AGGAACTG: -0.0991
TCCTATCA: -0.0581
AAATGGAT: -0.0991
AATTGGAT: -0.0624
AAGTTATC: -0.0952
CGTCACAC: 0.0212
ACATACGG: 0.237
AACGTAAT: -0.111
CCCTTGGA: -0.123
AGACAGAT: -0.156
CGAGACGC: 0.174
GCGCCCGC: 0.337
GTGGTGCA: -0.0944
CAGGAATA: 0.0493
ACCACATG: -0.0586
CAACTACC: -0.136
CGAGTTCC: -0.0194
CACCCCTA: -0.228
AGTTTCTC: -0.13
AGTATCAC: -0.0492

Block 4
Target: Centromere-binding protein 1, full length, N-terminal tag (CBF1, Saccharomyces cerevisiae, UniProt P17106, residues 1-351)
Chain of UniProt P17106 (whole entry, looked up): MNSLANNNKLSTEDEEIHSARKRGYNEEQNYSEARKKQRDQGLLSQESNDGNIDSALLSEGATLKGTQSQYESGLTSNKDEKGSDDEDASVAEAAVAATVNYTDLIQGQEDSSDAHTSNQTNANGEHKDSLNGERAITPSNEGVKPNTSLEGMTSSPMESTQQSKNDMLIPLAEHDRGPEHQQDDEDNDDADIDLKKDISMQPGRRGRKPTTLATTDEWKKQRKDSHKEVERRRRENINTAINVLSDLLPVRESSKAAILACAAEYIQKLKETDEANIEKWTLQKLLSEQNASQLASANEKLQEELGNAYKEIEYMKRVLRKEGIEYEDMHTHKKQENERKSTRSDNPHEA
Technique: protein-binding microarray
Molecule type: double-stranded DNA, one strand shown
Medium: in vitro
Concentration: 0.8 µM
Notes: whole 60-bp probe, no competitor
Reading: higher = stronger binding
Quantity: fluorescence intensity
GAATTTTTTACAAACCACGTCAGGAGTTCAATTTAGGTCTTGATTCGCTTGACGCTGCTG: 700 a.u.
CCTAACTACTATAAGCACCTGAAATAGCTTCGTACAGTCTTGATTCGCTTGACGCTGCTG: 529 a.u.
CTACCTTTTACAGGTGACGACTCTCCTTTTCCGTTCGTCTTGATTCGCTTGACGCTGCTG: 593 a.u.
TGTACGAAGCTATTCCGTGCGCATATAGTAGTTAGGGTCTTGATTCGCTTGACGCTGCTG: 497 a.u.
CTAATTGGCATTACTCAGCTGATACTTATTAATTTCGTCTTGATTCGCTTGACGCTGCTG: 733 a.u.
GAATCACTACTTCATCAGATGAGGAGGGGAGGGTAGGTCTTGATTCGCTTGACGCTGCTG: 508 a.u.
TGTACGAAGCTATTTAACGTGTTTATAGTAGTTAGGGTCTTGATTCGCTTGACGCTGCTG: 521 a.u.
TGTACGAAGCTATGTGTCATGCCTATAGTAGTTAGGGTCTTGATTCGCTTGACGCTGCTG: 633 a.u.
CTAGTATGCAGCGCAGCCGTGACCTCCCGGATATTCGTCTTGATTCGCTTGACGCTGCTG: 592 a.u.
TGTACGAAGCTATCGCACATTTTTATAGTAGTTAGGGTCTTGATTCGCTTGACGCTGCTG: 523 a.u.
GAAAACCGTCCAATATTCGTGATTGATCTTCGATAGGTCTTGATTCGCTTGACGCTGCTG: 566 a.u.
GAATTCCTGGATATGCGCGTGCTAACTAGAGCATAGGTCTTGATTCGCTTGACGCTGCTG: 723 a.u.
GAATATATATGCTAGTACAACACGTTTGGTTGATAGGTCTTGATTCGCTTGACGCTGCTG: 519 a.u.
GAAAATATGTAGGTAAACGTGTCCATAAAATGGTAGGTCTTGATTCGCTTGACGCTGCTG: 716 a.u.
CTATACGTAATTGGGCTCGTGGGACCAAAAGGCTTCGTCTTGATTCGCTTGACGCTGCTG: 536 a.u.
CTAATACCAAGAACTCACGAAAAGACTAGGAATTTCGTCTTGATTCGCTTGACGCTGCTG: 487 a.u.
GAAAGATCTTTCTGCCTGATGAAAGAAAATCCTTAGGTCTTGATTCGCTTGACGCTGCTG: 509 a.u.
GAATACAAAATTTTACATGTGGTACTATTTCTCTAGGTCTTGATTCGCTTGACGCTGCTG: 610 a.u.
CTATAAAGCGTCCTTCTGCTGATGTGTTATTTGTTCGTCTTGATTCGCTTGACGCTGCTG: 532 a.u.
GAATTTTACGTTAATGACGTCATGGTGGTATAGTAGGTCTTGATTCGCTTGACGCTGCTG: 570 a.u.
CTAGAATCCGAGAATCACATGAGGTTTGGGATATTCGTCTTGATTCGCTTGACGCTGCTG: 705 a.u.
GAATTGTTCCAAAATATCGTGATATTTGAAAGTTAGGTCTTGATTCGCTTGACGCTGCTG: 644 a.u.

Excerpt of the above (block 4):
GAATTCCTGGATATGCGCGTGCTAACTAGAGCATAGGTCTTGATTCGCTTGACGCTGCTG: 723 a.u.
GAATTGTTCCAAAATATCGTGATATTTGAAAGTTAGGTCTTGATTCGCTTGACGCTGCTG: 644 a.u.
CTAGTATGCAGCGCAGCCGTGACCTCCCGGATATTCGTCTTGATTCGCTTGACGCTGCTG: 592 a.u.
GAATTTTACGTTAATGACGTCATGGTGGTATAGTAGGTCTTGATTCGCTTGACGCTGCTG: 570 a.u.
GAAAGATCTTTCTGCCTGATGAAAGAAAATCCTTAGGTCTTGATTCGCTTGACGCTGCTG: 509 a.u.
GAAAATATGTAGGTAAACGTGTCCATAAAATGGTAGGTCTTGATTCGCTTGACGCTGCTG: 716 a.u.
TGTACGAAGCTATTTAACGTGTTTATAGTAGTTAGGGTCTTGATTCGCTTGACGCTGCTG: 521 a.u.
CTAATACCAAGAACTCACGAAAAGACTAGGAATTTCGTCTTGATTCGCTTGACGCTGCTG: 487 a.u.
CTACCTTTTACAGGTGACGACTCTCCTTTTCCGTTCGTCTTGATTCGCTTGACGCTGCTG: 593 a.u.
